Assay results of several laboratories.
A part holds a random share of what one study measured.

Sample 1 — technique: protein binding microarray; form: double-stranded DNA, one strand shown; sample: in vitro; tested at: not given; baseline: not given; direction: higher = stronger binding
Target: Histone acetyltransferase KAT6A, winged helix 1, GST fusion (KAT6A, Homo sapiens, UniProt Q92794, residues 1-85)
Setting: 8-mer, flanks averaged, mean of 2 arrays, mostly near background
Residues (chain): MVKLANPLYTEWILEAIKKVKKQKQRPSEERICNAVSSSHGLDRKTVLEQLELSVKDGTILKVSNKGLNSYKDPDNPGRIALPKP
Oligonucleotide	E-score
GGTTCAGA	-0.21
ACGTACGC	0.248
CGAATGCA	-0.1
AAGTCCCT	-0.156
AGTACGTA	-0.0808
ACGTTCCT	-0.104
AGCACATG	-0.0881
ATAGTGAA	-0.176
CCGATTAA	0.093
ATCACGGC	0.37

Sample 2 — technique: protein-binding microarray; form: double-stranded DNA, one strand shown; sample: in vitro; tested at: not given; direction: higher = stronger binding
Target: Protein C-ets-1 (ETS1, Homo sapiens, UniProt P14921, residues 1-441, K379A, full length assumed)
Setting: k-mer, scored over probes, only values ≥0.25
Construct (chain): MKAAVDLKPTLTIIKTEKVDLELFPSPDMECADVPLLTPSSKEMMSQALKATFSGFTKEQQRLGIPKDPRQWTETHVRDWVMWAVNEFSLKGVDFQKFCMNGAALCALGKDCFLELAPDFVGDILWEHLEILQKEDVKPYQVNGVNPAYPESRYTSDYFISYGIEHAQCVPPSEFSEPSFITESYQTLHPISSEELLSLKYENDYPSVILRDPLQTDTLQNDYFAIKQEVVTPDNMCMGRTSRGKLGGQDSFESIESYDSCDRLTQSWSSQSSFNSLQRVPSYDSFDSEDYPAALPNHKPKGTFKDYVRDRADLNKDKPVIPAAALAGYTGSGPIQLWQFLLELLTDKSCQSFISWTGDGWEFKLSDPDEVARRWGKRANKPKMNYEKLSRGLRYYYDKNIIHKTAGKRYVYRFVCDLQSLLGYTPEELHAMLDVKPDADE
Oligonucleotide	E-score
AACCGGGG	0.444
CCGTCAAA	0.319
CGTCAAAC	0.274
CAAGAACC	0.251
ACAACAAA	0.252
AACTTATT	0.253
CTTCCGGC	0.405
ACATTATG	0.304
CCGGGGCC	0.307

Sample 3 — technique: protein-binding microarray; form: double-stranded DNA, one strand shown; sample: in vitro; tested at: 2540 nM top; setting: 60-bp whole probe; together with: salmon DNA 0.4 mg/ml; baseline: random background probes; direction: higher = stronger binding; constant ends, left off below: GCCTAGCAC … GTCTTGATTCGCTTGACGCTGCTG
Target: Interferon regulatory factor 3, full length, phosphomimetic (IRF3, Homo sapiens, UniProt Q14653, residues 1-427, S386D/S396D/S398D/S402D/T404D/S405D)
Target sequence (chain): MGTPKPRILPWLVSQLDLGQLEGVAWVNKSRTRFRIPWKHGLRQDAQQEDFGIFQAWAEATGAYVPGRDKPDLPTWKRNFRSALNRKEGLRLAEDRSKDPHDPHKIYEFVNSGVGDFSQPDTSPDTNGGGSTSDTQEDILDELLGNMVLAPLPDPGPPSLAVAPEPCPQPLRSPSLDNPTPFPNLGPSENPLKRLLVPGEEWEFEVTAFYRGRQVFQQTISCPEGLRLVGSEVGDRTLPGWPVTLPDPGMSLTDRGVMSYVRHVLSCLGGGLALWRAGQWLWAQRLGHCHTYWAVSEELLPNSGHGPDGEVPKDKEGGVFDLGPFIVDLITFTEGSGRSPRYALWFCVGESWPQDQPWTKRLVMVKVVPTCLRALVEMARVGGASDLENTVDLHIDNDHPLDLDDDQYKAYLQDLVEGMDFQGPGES
Oligonucleotide	fitted relative affinity
TTAGATATGGGGACTGGATTAGTGCTA	-0.627 z-score
AACATACTGATTTCCACTTTGTGCTAG	1.43 z-score
GACGGTATCCTTTTCCTGCCGTGCTAG	7.23 z-score
TTAGGACTGAGTCTCGATTAGTGCTAG	-0.453 z-score
GACGGTCTACTTATCCTGACGTGCTAG	0.327 z-score
TTAGTTATCGGACTGGGTTAGTGCTAG	0.502 z-score
TTAGATCTCAATTTCGATTAGTGCTAG	1.47 z-score
GTCGGTTTCCTTCTCCTGACGTGCTAG	11.3 z-score
GAGGATTTCGGGACTGGAGACGTGCTA	0.492 z-score
TTAGATTTCAGTTCCGACTAGTGCTAG	3.23 z-score
GACGATCTCGGACTGGGGACGTGCTAG	0.075 z-score
GACGGTATCGTCACTGGGGACGTGCTA	0.271 z-score
GACGATCTCAGTTACGAGACGTGCTAG	0.649 z-score
TTAGATATCGGGTTTGGATTAGTGCTA	0.288 z-score
GGTGTTTTCTAAACCATTGTGTGCTAG	1.08 z-score
TTAGGTTTCCTTTTCCGTTAGTGCTAG	10.8 z-score

Mixed results
Substance	target	test	test system	conditions	scale	measurement	value
PhoQ, residues 284 288 289 292 302 303 TLSLKA	PhoP, residues 12 14 15 18 19 TQCLL (Escherichia coli, UniProt P23836)	Sort-seq, measured: YFP reporter	E. coli	PhoQ-PhoP variant library, together with: 10 µM Mg2+	baseline: high Mg2+ state, higher = stronger signaling	fold induction	2.32

Excerpt of the above (sample 2):
Oligonucleotide	E-score
AACCGGGG	0.444
CTTCCGGC	0.405
